# Measurements gathered from unrelated publications.
# Compare with care: the assays were run in different laboratories.
Compound,assay,system,setting,endpoint,value
CCCC[C@@H]1NC(=O)[C@@H](NC(=O)[C@H](CCC(=O)O)NC(=O)CNC(=O)CN2CCN(CC(=O)O)CCN(CC(=O)O)CCN(CC(=O)O)CC2)CCCCNC(=O)C[C@@H](C(N)=O)NC(=O)[C@H](C(C)C)NC(=O)[C@@H]2CCCN2C(=O)[C@H](CCCNC(=N)N)NC(=O)CNC(=O)[C@H](Cc2c[nH]c3ccccc23)NC(=O)[C@H](CCCNC(=N)N)NC(=O)[C@@H](Cc2ccccc2)NC(=O)[C@H](Cc2c[nH]cn2)NC(=O)[C@H](CCC(=O)O)NC1=O [gallium-67 labelled],RP-HPLC,mouse serum,"24 h, 37 °C",serum stability,stable
CCCC[C@H](NC(=O)[C@H](CCCNC(=N)N)NC(=O)[C@H](Cc1c[nH]c2ccccc12)NC(=O)[C@H](CSSC[C@H](NC(=O)[C@@H]1CCCN1C(=O)[C@H](CC(N)=O)NC(=O)[C@@H](N)[C@@H](C)CC)C(=O)N[C@@H](Cc1c[nH]c2ccccc12)C(=O)N[C@@H](CCCNC(=N)N)C(=O)N[C@@H](CCCC)C(=O)N[C@@H](CCCNC(=N)N)C(=O)N[C@@H](Cc1ccc(O)cc1)C(N)=O)NC(=O)[C@@H]1CCCN1C(=O)[C@H](CCCCNC(=O)CN1CCN(CC(=O)O)CCN(CC(=O)O)CCN(CC(=O)O)CC1)NC(=O)[C@@H](N)[C@@H](C)CC)C(=O)N[C@@H](CCCNC(=N)N)C(=O)N[C@@H](Cc1ccc(O)cc1)C(N)=O [gallium-68 labelled],,human serum,,serum protein binding,~30%
CCCC[C@H](NC(=O)CNC(=O)CNC(=O)CN1CCN(CC(=O)O)CCN(CC(=O)O)CC1)C(=O)N[C@H]1CC(=O)NCCCC[C@@H](C(N)=O)NC(=O)[C@H](Cc2c[nH]c3ccccc23)NC(=O)[C@H](CCCNC(=N)N)NC(=O)[C@@H](Cc2ccccc2)NC(=O)[C@H](Cc2c[nH]cn2)NC1=O [copper-64 labelled],RP-HPLC,mouse serum,"2 h, 37 °C",serum stability,stable
CCCC[C@H](NC(=O)CNC(=O)CNC(=O)CN1CCN(CC(=O)O)CCN(CC(=O)O)CCN(CC(=O)O)CC1)C(=O)N[C@H]1CC(=O)NCCCC[C@@H](C(N)=O)NC(=O)[C@H](Cc2c[nH]c3ccccc23)NC(=O)[C@H](CCCNC(=N)N)NC(=O)[C@@H](Cc2ccccc2)NC(=O)[C@H](Cc2c[nH]cn2)NC1=O [lead-203 labelled],radio-HPLC,mouse serum,"4 h, 37 °C",serum stability,stable
CC(C)[C@@H]1NC(=O)CNC(=O)[C@H](Cc2c[nH]c3ccccc23)NC(=O)[C@@H]2CCCN2C(=O)[C@H](CC(=O)O)NC(=O)[C@H](CCC(N)=O)NC(=O)[C@H](CCC(=O)O)NC(=O)[C@H](Cc2ccc(O)cc2)NC(=O)CNC(=O)[C@@H](N)CSSC[C@@H](C(=O)N[C@H](CCCCN)C(=O)N[C@H](CCCCN)C(=O)N[C@H](CCCCN)C(=O)N[C@@H](CCCCNC(=O)CCCC[C@@H]2SC[C@@H]3NC(=O)N[C@@H]32)C(N)=O)NC(=O)CNC(=O)[C@H](Cc2ccc(O)cc2)NC(=O)[C@H](Cc2c[nH]c3ccccc23)NC(=O)[C@H](Cc2ccc(O)cc2)NC(=O)[C@H](CCCNC(=N)N)NC1=O,MALDI-TOF MS,normal mouse serum,"37 °C, until peptide no longer detected",serum stability time,> 48 h
CC(C)[C@H](NC(=O)[C@@H]1CCCN1C(=O)[C@H](CCCNC(=N)N)NC(=O)[C@H](CS)NC(=O)[C@H](Cc1c[nH]c2ccccc12)NC(=O)[C@H](CCCNC(=N)N)NC(=O)[C@@H](Cc1ccccc1)NC(=O)[C@H](Cc1c[nH]cn1)NC(=O)[C@H](CCC(=O)O)NC(=O)[C@H](CS)NC(=O)[C@H](CS)NC(=O)CNC(=O)[C@@H]1CC(=O)N[C@@H](CCCNC(=N)N)C(=O)NCC(=O)N[C@@H](CC(=O)O)C(=O)N[C@H](Cc2ccc(O)cc2)C(=O)N1)C(N)=O [technetium-99m labelled],RP-HPLC,mouse serum,"24 h, 37 °C",serum stability,stable
CCCC[C@H](NC(=O)[C@H](CCC(=O)O)NC(=O)CNC(=O)CN1CCN(CC(=O)O)CCN(CC(=O)O)CCN(CC(=O)O)CC1)C(=O)N[C@H]1CC(=O)NCCCC[C@@H](C(N)=O)NC(=O)[C@H](Cc2c[nH]c3ccccc23)NC(=O)[C@H](CCCNC(=N)N)NC(=O)[C@@H](Cc2ccccc2)NC(=O)[C@H](Cc2c[nH]cn2)NC1=O [indium-111 labelled],RP-HPLC,mouse serum,"24 h, 37 °C",serum stability,stable
CC(C)[C@H](NC(=O)CNC(=O)[C@H](Cc1c[nH]c2ccccc12)NC(=O)[C@@H]1CCCN1C(=O)[C@H](CC(=O)O)NC(=O)[C@H](CCC(N)=O)NC(=O)[C@H](CCC(=O)O)NC(=O)[C@@H](N)Cc1ccc(O)cc1)C(=O)N[C@@H](CCCCN)C(=O)N[C@@H](Cc1c[nH]c2ccccc12)C(=O)N[C@@H](Cc1c[nH]c2ccccc12)C(=O)N[C@@H](Cc1ccc(O)cc1)C(=O)NCC(=O)NCC(=O)NCC(=O)N[C@@H](CO)C(=O)N[C@@H](CCCCN)C(=O)N[C@@H](CCCCN)C(=O)N[C@@H](CCCCNC(=O)CCCC[C@@H]1SC[C@@H]2NC(=O)N[C@@H]21)C(N)=O,MALDI-TOF MS,normal mouse serum,"37 °C, until peptide no longer detected",serum stability time,≤ 4 h
